Measurements gathered from unrelated publications.
Parts stem from different laboratories: compare values within a part only. Changes are numbered by the printed parent chain.

Block 1
Target: JUND, bZIP domain (human)
Technique: DHFR protein complementation
Sample: yeast
Notes: single substitutions, most at no-binding floor
Baseline: wild-type JUN-FOS pair
Reading: higher = stronger binding
Starting sequence: JUN, bZIP domain (human); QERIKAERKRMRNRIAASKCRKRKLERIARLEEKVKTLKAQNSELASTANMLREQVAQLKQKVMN; partner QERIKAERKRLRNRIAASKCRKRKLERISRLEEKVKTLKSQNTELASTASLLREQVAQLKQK
| Substitution | binding fitness [natural log] |
| --- | --- |
| K34F | -1.07 |
| Q41E | -0.559 |
| E32L | -0.973 |
| T48V | -0.637 |
| M51L | -0.621 |
| S47Y | -0.76 |
| K34N | -0.921 |
| E44L | -0.884 |
| E54D | -0.922 |
| K39M | -0.633 |
| A46I | -0.48 |
| S43W | -0.996 |
| E54R | -0.879 |
| T37Y | -0.549 |
| R30W | -0.777 |
| T37K | -0.632 |
| A46N | -0.621 |
| K39F | -1.19 |
| A40S | -0.828 |
| Q58S | -0.634 |
| K34C | -0.6 |

Block 2
Target: RNA binding protein fox-1 homolog 2, RRM domain, GST-SBP tag (RBFOX2, Homo sapiens, UniProt O43251-10, residues 100-194)
Technique: RNA Bind-n-Seq
Molecule type: RNA
Sample: in vitro
Tested at: 365 nM
Notes: natural RNA segment, single round, ends assumed
Baseline: no-protein control
Reading: higher = stronger binding
Shared flanks, not repeated: GGGAGUUCUACAGUCCGACGAUC … UGGAAUUCUCGGGUGCCAA
Residues (chain): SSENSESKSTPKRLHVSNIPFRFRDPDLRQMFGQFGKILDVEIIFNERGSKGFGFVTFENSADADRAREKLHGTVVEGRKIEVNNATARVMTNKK
| Oligonucleotide | RBNS enrichment (R) |
| --- | --- |
| GAGCACAGUGUCUCCAAGCCCAUCUGGUUUUUUACACUGUUUGUUAAUAAACCCUGAAACUUCUGUGUGCCUGUCUCCUGUCUGAUGCAUUUUCCAGCUGCUCUCUCCAG | 0.698 |
| CGAAGUUUGACACCUAUAUCCCCAUGUUUUGUGACUACAUCCCGUAGUGUCCUGCCUAUUCCUUUCUGGCUACCUAAACGGUUCUCACUCAGGUCCUCUGGAAUAUUCUC | 0.299 |
| UAAUAUCUUUUCUCUUUUAACAUUGAAGAAAUGGGAAAUUUCAUUAAUGACAUUGUUGUUGAUAAAUCUUUUUGCCUAAAAACUAGAAUAAAAUUGCAGUUGUUUCAGUG | 0.399 |
| UCUGGGUGGUCUGAAUAUUAAAGCUCUUCAUUUCUGGAGAUGGGGCAGCAGGUGGCUCUUCUGCUGGGGCUGACUUGUCCAGAAGGGGACAAAGUGCAAUACAGAGCCUU | 0.559 |
| UUUCUCCCCUCUUUGUGUGGCCCCAGCCAGGGCGGUGGGCAGUCCUGGUGUAGAGCACAAGCCUCUCCACCCUAGAGAAAUGCCUCUGUACCACGGCUACCAUGUGGAAC | 0.492 |
| UCUUUUCCUAUAGGUUUGCAGAGCAUGUCUGCAGUUUCUCGGUUGUUAUAGAUUUCCUACCUAACCGGGAUGAUGAUGCACAGAACUCUAAAGCCAGUAGUGUGGCAACA | 4.69 |
| GAGAGAAGAUUUCAGACUUCUUUUUCUCAGAAAGCAUGAAGAAUUUAUGAAGUAUGGAAAAGAAGCCCUUACAUAUUCCAGAUGUGUGCAGCAGGGGGCACUGUCCCAGC | 3.18 |
| CACACUUGGCCCUCUUCCUCUCCAAAGCGCCAGAACCUCCUUCUCUUUGGAGAAUGGGGAGGCCUCUUGGAGACACAGAGGGUUUCACCUUGGAUGACCUCUAGAGAAAU | 0.226 |

Block 3
Target: RING finger protein unkempt homolog, zinc fingers 1-6, SBP tag (UNK, Homo sapiens, UniProt Q9C0B0, residues 30-357)
Chain of UniProt Q9C0B0 (30-357, looked up): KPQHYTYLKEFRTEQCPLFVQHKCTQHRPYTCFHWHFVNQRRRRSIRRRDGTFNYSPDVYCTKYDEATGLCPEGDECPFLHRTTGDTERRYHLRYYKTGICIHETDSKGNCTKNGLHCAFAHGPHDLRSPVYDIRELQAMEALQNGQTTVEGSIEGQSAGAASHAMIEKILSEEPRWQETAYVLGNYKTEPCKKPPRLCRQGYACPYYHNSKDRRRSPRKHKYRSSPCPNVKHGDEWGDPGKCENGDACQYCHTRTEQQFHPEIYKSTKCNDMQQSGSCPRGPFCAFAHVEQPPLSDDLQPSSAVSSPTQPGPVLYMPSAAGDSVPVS
Technique: RNA Bind-n-Seq
Molecule type: RNA
Sample: in vitro
Tested at: 100 nM
Notes: RNA with constant flanks, vertebrate orthologous sites, ends assumed
Baseline: input RNA pool
Reading: higher = stronger binding
Shared flanks, not repeated: GGGAGUUCUACAGUCCGACGAUC … CAACAGAGGAUUGAGCAUCA
| Oligonucleotide | bound/input enrichment |
| --- | --- |
| UUGGUUUGGGGUAGAGGGGAGGGAAGGGCAGGAUGGUAUGGAAUCUCUAGGGUAUAUGGGUAGUUAGGGUACACAGUUAGUUCUAAGUGGGCCUUUAUGUUAAAAAUUUUUGGGAGGUGA | 1.91 ratio |
| UAUGAGGGGGUUGCCUUGGCCCCUGCCUUGGCCUUGCCUCUCCUCCUUGCCACCUGUCCCUAGUUAUUUUUUUUUAACCACCACGUGAUUAUGGUCGGUGCUGCCUCUCCCCCGACCAGC | 4.99 ratio |
| GUGACUUUGGAAGUCCGCACUGUCUCAUUGCAGAUACUACUUAGCUCAGGGCCUGGUGGCUAGACAGCUUCUCUCCUUUCCAGUCGGAGGCCUCUGCCGCAAACAUGCUCCGCCAGAUCC | 0.556 ratio |
| UCAAGCUGUUCUUUCACCUUUCCUGUAAAUAAUGGAUGAUCUUUUUAAAAAAAAAUUUUUAAAUGCUGUUUUAACAGUGUGGGUAGACCAUAAAUGUAUGUGUUGAAUUUAUUCAUUUUU | 0.409 ratio |
| GAGAACAGGAAUAUGUCUUUAUUGAGAAUAGUUUGGUGCUGAGGACUAUGUUAGAUUAAAAAAUGAAUUGAUUCCUAUUUGUUGUGUUGCUUUCAUUCAUUGAAAAUCAAAUAAAACUUU | 0.474 ratio |
| UCAUUGUACUGCAAAAAUCAUCCUCGUUUUAAAUUAGCCACAGUGAUAACUAGUCUGCACUAGUAGAAUCAUUUACCUUUUAAAUUAUCUGCUUUGUCUGAUACCUGAAACACAUCAAAA | 0.655 ratio |
| GUGAGGGUCUACUGACCACUCACUAUUAUGUCUGGUAUCUGUAAACACUCUCUUUGUUCUUAGUCUUUUUCUUGUAUAAUUGAUGUCCUUUAAAAUUGUUACUGUAUAACAGGGCUUAUA | 1.27 ratio |
| ACCCCCCACUCCCUGUAAGAGGGAAUGGGGGAAGCCUGAUGACCCUCAGCUGUUCCAAUCUAGUAUUUUUUUUUUCUUUUUUAAAAUUACUCUAUUUAUUAUGACGAUGGUGACUCCCCA | 3.37 ratio |

Block 4
Target: Sal-like protein 4, full length isoform B (SALL4, Homo sapiens, UniProt Q9UJQ4-2, residues 1-616)
Technique: universal PBM
Molecule type: double-stranded DNA, one strand shown
Sample: in vitro
Tested at: not given
Notes: 8-mer, flanks averaged, mean of replicates
Reading: higher = stronger binding
Target sequence (chain): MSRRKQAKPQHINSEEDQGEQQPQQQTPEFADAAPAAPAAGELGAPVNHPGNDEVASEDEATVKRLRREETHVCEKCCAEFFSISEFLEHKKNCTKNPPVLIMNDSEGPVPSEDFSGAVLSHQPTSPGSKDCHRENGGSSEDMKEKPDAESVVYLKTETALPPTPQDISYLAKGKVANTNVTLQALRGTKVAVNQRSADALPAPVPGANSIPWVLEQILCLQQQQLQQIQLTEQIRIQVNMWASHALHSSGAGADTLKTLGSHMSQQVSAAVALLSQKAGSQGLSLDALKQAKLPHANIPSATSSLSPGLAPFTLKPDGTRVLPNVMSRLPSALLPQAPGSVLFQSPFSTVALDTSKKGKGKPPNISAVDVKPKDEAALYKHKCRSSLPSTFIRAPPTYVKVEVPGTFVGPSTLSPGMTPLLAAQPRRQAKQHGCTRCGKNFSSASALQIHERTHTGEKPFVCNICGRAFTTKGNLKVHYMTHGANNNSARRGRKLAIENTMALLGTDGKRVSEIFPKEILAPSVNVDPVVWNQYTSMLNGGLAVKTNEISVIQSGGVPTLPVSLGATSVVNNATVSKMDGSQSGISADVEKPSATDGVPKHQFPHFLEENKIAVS
| Oligonucleotide | E-score |
| --- | --- |
| GAACGAAC | 0.0253 |
| TAAATCGA | 0.209 |
| ACATGTTC | 0.161 |
| AGGTCCCA | -0.126 |
| ACGGTGAT | -0.0649 |
| AAAGGTGA | 0.123 |
| CTGTGTCC | -0.115 |
| CCCGAGCG | -0.303 |
| AGTAGCTG | -0.0197 |
| CGTACCCA | -0.132 |
| GGAACCCA | -0.268 |
| GCGAGGAA | -0.0368 |
| CTGCAGCC | -0.22 |
| AATACTCG | 0.106 |
| GAATGGTA | 0.217 |
| CGGAGTCA | -0.258 |
| GCAACCCA | -0.0692 |
| AAGAGTAC | 0.0365 |
| AGGCAAAC | -0.0659 |
| ACCGTCCG | -0.313 |
| TATCGTCA | 0.0879 |
| CCAATTCG | -0.0228 |
| GATGGAAC | -0.0888 |
| TCATTGCA | 0.0639 |
| ATCCCGAC | -0.145 |

For quick reference, copied from above (block 4):
| Oligonucleotide | E-score |
| --- | --- |
| TAAATCGA | 0.209 |
| GCGAGGAA | -0.0368 |
| CGGAGTCA | -0.258 |
| CCAATTCG | -0.0228 |
